Published values pooled from the literature.
A part holds a random share of what one study measured.

Series 1
Target: Sal-like protein 4, full length isoform B (SALL4, Homo sapiens, UniProt Q9UJQ4-2, residues 1-616)
Technique: universal PBM
Molecule type: double-stranded DNA, one strand shown
Sample: in vitro
Tested at: not given
Setting: 8-mer, flanks averaged, mean of replicates
Direction: higher = stronger binding
Measurement: E-score
ACTGCTGC: -0.206
CTGAGCAG: -0.0661
TACGACAA: 0.0623
AAGGCACA: 0.0408
GGCCAGAA: -0.178
AATAATTA: 0.435
ACTGTGGA: -0.0267
AAACAGGC: -0.13
TCCGGCCA: -0.184
CTAGCTAG: -0.098
AACTGACG: -0.161
TCCTTTAA: 0.126
ACCATGGT: -0.0162
ACGCGCGG: -0.31
ACACCCCG: -0.307
ATCTACTA: 0.35
ACCTCAAG: -0.143
ACACCTCT: -0.163
CCGACTGC: -0.332
CCCGGATA: -0.112

Series 2
Target: Histone acetyltransferase KAT6A, winged helix 1, GST fusion (KAT6A, Homo sapiens, UniProt Q92794, residues 1-85)
Technique: protein binding microarray
Molecule type: double-stranded DNA, one strand shown
Sample: in vitro
Tested at: not given
Setting: 8-mer, flanks averaged, mean of 2 arrays, mostly near background
Baseline: not given
Direction: higher = stronger binding
Measurement: E-score
Target sequence (chain): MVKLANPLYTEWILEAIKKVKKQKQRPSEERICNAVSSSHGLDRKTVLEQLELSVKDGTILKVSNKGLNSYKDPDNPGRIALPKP
CGGAAATC: 0.0449
CACGGGCC: 0.284
TAATGATA: -0.0151
CTTCTCAA: -0.0937
AAACGAAA: -0.0212
GAGACATA: -0.0469
ACCGGCTC: 0.162
CCAACAGG: -0.173
CCTCTTAA: -0.0278
ACATCCGA: 0.073
TAACTCTA: -0.153
CAACGTGG: -0.156
CCGTATCG: 0.332
ATGTAGTA: -0.13
AGTCTGCG: -0.0412
GGCTGTGA: -0.0131
GGAAACAA: -0.0485
GTTCTAGA: -0.134
CCCAAGAC: -0.244
ATGTGGTG: -0.104
GGGTACAC: 0.215
AAGAACGA: -0.12
AGACAGGA: -0.306
GACCTGGC: -0.138
ATGTTCTC: -0.131

Series 3
Target: PABPC1L2, full length, GST fusion (mouse, UniProt A0ABA7IW68)
Technique: RNAcompete
Molecule type: RNA
Sample: in vitro
Tested at: 20 nM
Setting: 7-mer, probes averaged, single round
Baseline: mean of 7-mers
Direction: higher = stronger binding
Measurement: 7-mer Z-score
Target sequence (chain): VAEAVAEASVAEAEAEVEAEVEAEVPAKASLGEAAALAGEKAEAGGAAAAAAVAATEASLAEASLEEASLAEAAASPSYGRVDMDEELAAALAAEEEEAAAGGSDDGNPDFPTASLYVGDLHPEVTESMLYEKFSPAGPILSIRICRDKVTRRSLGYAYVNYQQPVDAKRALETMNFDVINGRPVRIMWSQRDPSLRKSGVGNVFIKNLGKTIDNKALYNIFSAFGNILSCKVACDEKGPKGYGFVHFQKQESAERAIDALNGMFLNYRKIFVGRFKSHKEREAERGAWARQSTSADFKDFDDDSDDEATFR
GGUCGCU: -0.257
UAACGCC: -0.3
ACACCAU: -0.0355
GGUCCAG: -0.0446
GGGAGUA: 0.1
GCCUGAA: -0.106
AGUCGUU: -0.508
UAUCCAU: -0.228
CCCGCAA: -0.15
AGAGCAA: 0.334
GACUACA: -0.0192
CCUACAA: -0.05
UUGGCUU: -0.191

Series 4
Target: RNA binding protein fox-1 homolog 2, RRM domain, GST-SBP tag (RBFOX2, Homo sapiens, UniProt O43251-10, residues 100-194)
Technique: RNA Bind-n-Seq
Molecule type: RNA
Sample: in vitro
Tested at: 365 nM
Setting: natural RNA segment, single round, ends assumed
Baseline: no-protein control
Direction: higher = stronger binding
Measurement: RBNS enrichment (R)
All sequences stand within: GGGAGUUCUACAGUCCGACGAUC … UGGAAUUCUCGGGUGCCAA
Target sequence (chain): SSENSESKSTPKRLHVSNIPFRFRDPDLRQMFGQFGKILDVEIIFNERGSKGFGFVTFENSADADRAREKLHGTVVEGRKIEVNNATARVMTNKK
GCCUCUCCAGUGAUUUUUUUUCCCAUUUUCUUCAGUGUUUCUAUAGCAGAGAUUUGAUAAUAAAAAGAAAAUCCUAAACAAUGAGAAAUAAAGUUACCUGGUUUCUCUGU: 0.527
CAUAUUUGCUCUAGAAGAAAAAAAAAAAAGGAGGGGAAAUGCAUUUUCCCCAGAGAUAAAGGCUGCCAUUUUGGGGGUCUGUACUUAUGGCCUGAAAAUAUUUGUGAUCC: 0.964
GUAGUUUGGGGACACUCUGUAUUCCUGUUUUCAUUCUAACAAAGAGGACAGAGCUAUUUUGCUAUGAUAAUCUCUGUGGUUUAUGAUAAUAAUCUGAACAGCAAACAGUG: 0.323
AUGAUGCCCAUAAUUGCAAGACUAUUCCUGUAAAAAUAACAAUUAUUGGGUAAUAACUUCAAGAGGAAUGAGAAGUGACAAAAUUGAUUUAAAAUAUUGUUCUACUUAUA: 0.655
UUUUUUGUUAGCUGAGACAUUGACAUGUUUGUAUUUAAUUCUCUUGAUAAAUUAGCUACUACAACCCCAUGGAACCAAGUCUUUUCAAAUUUCAACAAAUUGUCUUUGAG: 0.336
UUUUUACAUUUAAUCUAACAUGUUAACACGUUCUAACAGGGUUUCUAUGAGCAGCUGCUGUAACAUACUCAUCAACUAUGAUAGACUUAACACUUGUUACCUAAUGAACA: 0.439
GCAACAACCUUCUCAUUGAGAUGCUGCAGGCCAAGCAGACUUGAGCCUGGGUGCCAGGCAGCGGGCAAUAGGCAGGGAUGCCACUGCCUCCAAAAGACUCCUUGCAUUAG: 1.08
AGGGAAGUUUAGGCCAGAAUGUGGCCAUCCCAGAAACUGAGGCCUCUCUCAGCCUCACCAGUGACAGAGAACAGCUGUGGUUCUCUGCUGGCCUCAGCUGAUCCAUGCUG: 1.15
CAAUGGAUGUAAACAUUUUUGAAAGAAUAAAGCAGAAUUAUAUAAUAUGAAAUGCUAUGUAAAGUUUUCUAUGUAAAAAAAUAUUAUGUAUAAUACUGUUAAAUACCCCA: 0.661
UUUGGCCCUGUAUCAGGAGCACAGAUACAGUUUAUGUAACUUGAUGGAAGAAAAUGGAAUUACUCCAAAAAGACAAGUGCUCAAGCAGCAAAAUCCUUACUUCCAGCAAA: 0.277
UUGCCAGAUCACAUGGCUGGAUGUGAUGUGGGGUGGGGGUGGGGUCAUAUCUGAGACAGCCCUCAGCUGAGGGCUUGUGGGACAGUGUCCAAGCCUCAGGCUGGGCUCAU: 0.675
CAAAGAAGCAAGACGAGCCAGGUUACUGACAUAAUCUUUAUGACAUGUGUACUGCAGUUGUGCCUUUUCUACAACACUGCAUUGAAUAAACUUGUCCGAAGUAUCGUUUU: 0.273

Series 5
Target: Fragile X messenger ribonucleoprotein 1, C-terminal low-complexity region (Fmr1, Mus musculus, UniProt P35922)
Technique: RNA Bind-n-Seq
Molecule type: RNA
Sample: in vitro
Tested at: 200 nM
Setting: whole 134-nt RNA, ends assumed
With: 150 mM LiCl
Baseline: input library
Direction: higher = stronger binding
Measurement: log2 enrichment
All molecules: 7-deaza-guanosine replaces G
All sequences stand within: GGGAGUUCUACAGUCCGACGAUC … UGGAAUUCUCGGGUGUCAAGG
CCUGUGCUACACAUCGUAUGUACCGAAUCGGGUUUUUGGGUUUUUUUGGGAAAAAAAGGGAAAGUAUUAUGUUACGCCGUUCGGAUCUGC: -1.71
AGUCCUGUGCUACACAUCGUAUGUACCGAAUCGGUUUUGGGGUUUUGGGGUUUUGGGGAAAGUAUUAUGUUACGCCGUUCGGAUCUGCAC: -0.314
UCAAGUCCUGUGCUACACAUCGUAUGUACCGAAUCGGAGGUUUUUUUGGAAAGGAAAGUAUUAUGUUACGCCGUUCGGAUCUGCACUUCC: -1.33
UGGGAGGUGGAUUUUGUUUAUUUUUUUAGCUCAUUUCCAGGGGUGGGAAUUUUUUUUUAAUAUGUGUCAUGAAUAAAGUUAUUUUUGAAA: -0.268
AAGUCCUGUGCUACACAUCGUAUGUACCGAAUCAAAUUUUUAAACCCAAACCCAAAAAAGUAUUAUGUUACGCCGUUCGGAUCUGCACUU: 0.527
UGCCCAGCUCAUGCUGGACCACCUGAAGAACAGUGCUCCCAGCAAGCGAGAGAUUGCCCAGCUCAAGAACCAGGUAUCCACAGAGAGCAC: 0.179
AAGUCCUGUGCUACACAUCGUAUGUACCGAAUCGGAAAAAAAGGUUUGGAAAAAGGAAAGUAUUAUGUUACGCCGUUCGGAUCUGCACUU: -2.89
CUCAAGUCCUGUGCUACACAUCGUAUGUACCGAAUCGGUUGGGGUUGGGUUGGGAAAGUAUUAUGUUACGCCGUUCGGAUCUGCACUUCC: -0.037
UCCUGUGCUACACAUCGUAUGUACCGAAUCAAACCCCCCCAAAUUUUUUUAAAUUUAAAAAAGUAUUAUGUUACGCCGUUCGGAUCUGCA: 1.86
UGGUAUUCAUGGGUAGUUUGAAAUAUCCAGAUGAGAAUGGAUUUGAUGCCUUCCUGAAGAAGCAUGGGGGUAGUGAUAAUGCCUCAACUG: -1.05
UGGGAGGUGGAUUUUGUUUAUUUUUUUAGCUCAUUUCCAGGGGUGGGAUUUUUUUUUUAAUAUGUGUCAUGAAUAAAGUUGUUUUUGAAA: -0.0473

Excerpt of the above (series 1):
AATAATTA: 0.435
ACTGTGGA: -0.0267
AAACAGGC: -0.13
TCCGGCCA: -0.184
CTAGCTAG: -0.098
AACTGACG: -0.161
TCCTTTAA: 0.126
